# Measured values of several laboratories.
# Protocols differ between the studies behind these lines.
# ABL1 T315I phosphorylated: Tyrosine-protein kinase ABL1, phosphorylated (ABL1, Homo sapiens, UniProt P00519, T315I)
# ABL1 E255K phosphorylated: Tyrosine-protein kinase ABL1, phosphorylated (ABL1, Homo sapiens, UniProt P00519, E255K)
# ABL1 non-phosphorylated: Tyrosine-protein kinase ABL1, non-phosphorylated (ABL1, Homo sapiens, UniProt P00519)
Compound,target,effect on,method,item,tested at,baseline,remaining binding [%]
CC(=O)N1c2ccc(-c3ccc(CNC(=O)c4cn5cc(-c6cnc(N)nc6)nc(N6CCOCC6)c5n4)cc3)cc2CC[C@@H]1C,ABL1 T315I phosphorylated,binding,competition with immobilised ligand,,10 µM,,99
CC(C)=CC1OC(C)(C)C2C=C3C(=O)C(Cl)=CC(O)C3C3C(O)C4OC4C(=O)C132 (stereo not shown),"Tyrosine-protein kinase ABL1, phosphorylated (ABL1, Homo sapiens, UniProt P00519, Y253F)",cell-free assay,competition with immobilised ligand,,10 µM,,80
CCN1CCN(Cc2ccc(NC(=O)c3ccc(C)c(NC(=O)c4cncc(-c5cccs5)c4)c3)cc2C(F)(F)F)CC1,"ABL1 (Homo sapiens, UniProt P00519, T315I)",binding,competition with immobilised ligand,,1 µM,,9.4
C=C1CCCCCCCCCC(CO)C1=O (stereo not shown),ABL1 E255K phosphorylated,cell-free assay,competition with immobilised ligand,,10 µM,,64
CNC(=O)C1CCN(c2cc(C)c(F)cc2NC(=O)c2ccc(-c3cc(O)ccc3C)c(C)c2)CC1,"Tyrosine-protein kinase ABL1, non-phosphorylated (ABL1, Homo sapiens, UniProt P00519, F317L)",binding,competition with immobilised ligand,,1 µM,,72
COc1c(Cl)cccc1Nc1c(-c2ccncc2C#C[C@@]2(C)CCCN2C(=O)/C=C/CN(C)C)[nH]c2c1C(=O)NCC2,"ABL1 (Homo sapiens, UniProt P00519, Y253F)",binding,competition with immobilised ligand,,3 µM,,56
COc1ccc(NC(=O)Nc2ccc3c(c2)C(=O)N(C(C)CO)CC(C)C(CN(C)Cc2ccc4c(c2)OCO4)O3)cc1 (stereo not shown),"Tyrosine-protein kinase ABL1, phosphorylated (ABL1, Homo sapiens, UniProt P00519)",binding,competition with immobilised ligand,,10 µM,,88
C=CC(=O)N1CCc2ccc(-n3c(=O)ccc4cnc5ccc(-c6cnn(C)c6)cc5c43)cc21,ABL1 T315I phosphorylated,,KINOMEscan,(T315I)-phosphorylated,1 µM,control,100
Cc1ccc(C(=O)Nc2cccc(C(F)(F)F)c2)cc1Nc1cncc(C(N)=O)c1,"ABL1 (Homo sapiens, UniProt P00519, F317L)",binding,competition with immobilised ligand,,1 µM,,22
CNS(=O)(=O)Nc1nccc(Cc2c(C)c3ccc(Oc4ncccc4F)cc3oc2=O)c1F,ABL1 non-phosphorylated,binding,competition with immobilised ligand,,10 µM,,100
CNC1C[S+]2CC[S+]3CC[S+](C1)[Ru-4]321([N]=C=S)[n]2c3ccc(OC)cc3c3c4c(c5cc(F)c[n+]1c5c32)C(=O)NC4=O (stereo not shown),ABL1 E255K phosphorylated,,KinomeScan,,0.1 µM,untreated,77
Nc1ncc2c(n1)-c1c([nH]c3ccc(C4=CCOCC4)cc13)CCC2,"Tyrosine-protein kinase ABL1, phosphorylated (ABL1, Homo sapiens, UniProt P00519, M351T)",binding,competition with immobilised ligand,,1 µM,,100
CN1CCN(Cc2ccc(NC(=O)c3cccc(C#Cc4cnc(N)c5ncccc45)c3)cc2C(F)(F)F)CC1,ABL1 non-phosphorylated,cell-free assay,competition with immobilised ligand,,50 nM,,0.8

# Some of these lines once more:
Compound,target,effect on,method,item,tested at,baseline,remaining binding [%]
CC(=O)N1c2ccc(-c3ccc(CNC(=O)c4cn5cc(-c6cnc(N)nc6)nc(N6CCOCC6)c5n4)cc3)cc2CC[C@@H]1C,ABL1 T315I phosphorylated,binding,competition with immobilised ligand,,10 µM,,99
CC(C)=CC1OC(C)(C)C2C=C3C(=O)C(Cl)=CC(O)C3C3C(O)C4OC4C(=O)C132 (stereo not shown),"Tyrosine-protein kinase ABL1, phosphorylated (ABL1, Homo sapiens, UniProt P00519, Y253F)",cell-free assay,competition with immobilised ligand,,10 µM,,80
